Published values gathered from unrelated publications.
Numbered parts are unrelated; each lists some results of a single study. Changes are numbered by the printed parent chain.

Set 1
Target: RNA binding protein fox-1 homolog 2, RRM domain, GST-SBP tag (RBFOX2, Homo sapiens, UniProt O43251-10, residues 100-194)
Method: RNA Bind-n-Seq
Molecule type: RNA
Matrix: in vitro
Concentration: 365 nM
Notes: natural RNA segment, single round, ends assumed
Relative to: no-protein control
Direction: higher = stronger binding
Constant ends, left off below: GGGAGUUCUACAGUCCGACGAUC … UGGAAUUCUCGGGUGCCAA
Target sequence (chain): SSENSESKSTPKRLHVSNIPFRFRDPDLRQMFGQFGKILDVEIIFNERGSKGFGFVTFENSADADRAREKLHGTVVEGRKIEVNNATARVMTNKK
| Oligonucleotide | RBNS enrichment (R) |
| --- | --- |
| UGGGCUCAAAAAAAGAAAGCCGCCAAAGACUCUUAUCCUUAUUGGUGCCCCAUCAUUGGCCACCCCAGCCAUAGGUGUGUGCUGUUGGUGGGAAAUGGUCUCCUUCCUCA | 0.278 |
| AAGGCAGGAAUUUGAGAGUUCACAGAAGGAUCGUGUCUGCUGACUGUUUCAUUCACUGUGCACUUUGCUCAAAAUUUUAAAAAUACCAAUCACAAGGAUAAUAGAGUAGC | 0.378 |
| UCUGUCUUCUGAGGCUUAGCAUCUGUCAGGGCUGGGGUUGGUUCAGCCCUUGGUACUCCAGAUGUGGUUCCAGGCUCCCUUGUGGGAGCUGGACCGGUCUGGGUUUAAUC | 0.248 |
| UCUACAUACCUGCUGCGCAGAGACCAGCCCCGUGGACAGAGCUGGCAUGAUGGUUGCUACAGUGCUCUUUCUCCCAUGAAGUCUUUGCUUUUAUAUCAGUGCCUUAUCUG | 3.91 |
| GGGUGUCUCGGAGAGUUGCCAUAUCUCCUUGUGUGAAUUGCGUGCUUGGAAGCAAUUUUUAAAGGGAGUGGAAAGCUUAGGGAAAUCGUUUGUAUUUGGAGUCUUGCUGU | 2.65 |
| CCCUUUGUGAGUGUCUCAGUCUAGAGGUACCUCCCUCCCUGGGGGGUCUCAGCUCCUGGAGUCGCAGGCCCUUGGGGCCCCUCUGUGAGAUCUCAAUGCUGUCUGGGGAC | 0.417 |
| CUGUUUGCCCAAUGGAUCAUUUGUAUGUUAACCACUGUAUGUAACCAACCCUUAUCUGGCAACAUAAUUGCAGCACAAUAAUGAUUUGCAUGAUACCUUGAAAUUGGGGG | 22 |
| GUGGAGGUUUUGGCAAUGAGCUGUUUAACUUGGCCAAGCUAGGCUGUCAACCCAGACAACUCAGUCCUUUCAUGUAAAUUUUUGGGCAAGAGAAGUCUGCUUUGACUGCC | 0.33 |

Set 2
Target: RING finger protein unkempt homolog, zinc fingers 1-6, GST-SBP tag (UNK, Homo sapiens, UniProt Q9C0B0, residues 30-357)
Chain of UniProt Q9C0B0 (30-357, looked up): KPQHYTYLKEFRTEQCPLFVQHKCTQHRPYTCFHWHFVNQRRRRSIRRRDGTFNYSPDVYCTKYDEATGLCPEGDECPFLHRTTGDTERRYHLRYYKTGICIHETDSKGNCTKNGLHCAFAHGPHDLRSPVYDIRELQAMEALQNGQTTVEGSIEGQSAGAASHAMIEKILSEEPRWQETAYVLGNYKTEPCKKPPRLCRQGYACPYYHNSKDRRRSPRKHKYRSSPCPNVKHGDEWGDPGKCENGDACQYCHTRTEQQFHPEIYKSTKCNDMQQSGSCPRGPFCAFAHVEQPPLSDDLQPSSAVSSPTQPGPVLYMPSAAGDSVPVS
Method: RNA Bind-n-Seq
Molecule type: RNA
Matrix: in vitro
Concentration: not given
Notes: RNA with constant flanks, ends assumed
Relative to: input RNA pool
Direction: higher = stronger binding
Constant ends, left off below: GGGAGUUCUACAGUCCGACGAUC … CAACAGAGGAUUGAGCAUCA
| Oligonucleotide | bound/input enrichment [ratio] |
| --- | --- |
| AUAACAAUGCUGGUUCCUGGAGGAGAAGGACCUGAAGUGUGAAUGAGUUUCCUUGACUUACACCCGAUUUUGUUUUGGCUUAUAAUGACAAGAAAAUGGAAUUUUUUUUCCCACUUUCUA | 0.257 |
| AUAGUAAAAGGGGGUGCUGCAGAGAAAAGUGGUCUGUUGCAUGAAGGAGAUGAAGUUCCCGAGAUUAAUGGCAUUGAAAUUCGGGGGAAAGAUGUCAAUGAGGUUUUUGACUUGUUGUCU | 0.978 |
| GAGAACCAGGAACUCGAGGCUCCUGGAGGAAUUGCCACACCGCCAGUGUACGGUCAGCUUCCCGCUUUGUACUUGCUCCAGAACGACAUGAAUAAUGCAAGAUAUCUGUGGAAGAGGAUA | 0.177 |
| GAAAGCACUACCCUAAGCCAUGAGGAUCUCCAUGCUUUGCUAACCAAGAUAACUGUUUUCUCUUUGCCGAAGUUUUGUUUUUGAAAUGUGUAUUUCUAAUUAUAUAAAAUAUUAAGAAUC | 0.456 |
| GUUGGAGAUACUCAGGUGGUGGUUUUUAAGCAUGAAAAGGAAGAUGGCGCCAUUUCUACCACCGUACUUCGAGGCUCUACAGACAAUCUGAUGGAUGACAUAGAAAGGGCAGUAGACGAU | 0.673 |
| GGACAUUCUUGAGGUUUAACCUUGAUCCCUUGUGCUUCGGGCCCCAGCCUGUUGCUUGUGUCCGCAGAGGUUUGGUCAGCUCUGUGCCACUGCUCCAGAGAAGUACUACUCACUGGCCUG | 0.13 |
| AGAAAAAUCAAACACUCCUUUAUAAUCUUUUUGACAUUUCUCAAUCUGCACAGACACCAGCCGCAGUUAUUGGACUUACAUGUAGAUUGGAUAUUUUGGAACUCUUAGAAAAGAGAGUGA | 0.517 |
| GCUCUGGAUAUAGAAAUCGCUGCGUACAGAAAACUCCUGGAGGGUGAAGAGACUAGAUUCCGCACAUUUGCAGGAAGCAUCACUGGGCCACUGUAUACACACCGACCCCCAAUCACAAUA | 0.295 |

Further values, each from its own experiment
P1: viral docking peptide; TSVRRALFTGGSD; partner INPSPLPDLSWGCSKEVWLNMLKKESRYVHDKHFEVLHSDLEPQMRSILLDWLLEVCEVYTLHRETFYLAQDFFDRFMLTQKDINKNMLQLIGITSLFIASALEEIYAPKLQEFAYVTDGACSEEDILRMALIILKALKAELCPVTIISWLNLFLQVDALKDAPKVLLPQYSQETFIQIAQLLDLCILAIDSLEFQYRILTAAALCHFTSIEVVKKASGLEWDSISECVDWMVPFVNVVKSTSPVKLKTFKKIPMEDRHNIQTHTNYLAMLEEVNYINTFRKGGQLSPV
| Substance | target | assay | test system | setting | how to read | measurement | value |
| --- | --- | --- | --- | --- | --- | --- | --- |
| P1 G10L | CCNE2, cyclin fold, Cln2 fusion (human) | yeast growth competition, sequencing | yeast | strong parent motif | relative to: not given, higher = stronger binding | normalised enrichment score | 2.93 |
| PhoQ, residues 284 288 289 292 302 303 SSCLAV | PhoP, residues 12 14 15 18 19 NQFFI (Escherichia coli, UniProt P23836) | Sort-seq, item: YFP reporter | E. coli | PhoQ-PhoP variant library, added: 10 µM Mg2+ | relative to: high Mg2+ state, higher = stronger signaling | fold induction | 14.5 |

Repeated from above (set 1):
| Oligonucleotide | RBNS enrichment (R) |
| --- | --- |
| UCUACAUACCUGCUGCGCAGAGACCAGCCCCGUGGACAGAGCUGGCAUGAUGGUUGCUACAGUGCUCUUUCUCCCAUGAAGUCUUUGCUUUUAUAUCAGUGCCUUAUCUG | 3.91 |
